Measured values collected from several papers.
Numbered parts are unrelated; each lists some results of a single study.

Study 1
Target: RNA binding protein fox-1 homolog 2, RRM domain, GST-SBP tag (RBFOX2, Homo sapiens, UniProt O43251-10, residues 100-194)
Technique: RNA Bind-n-Seq
Form: RNA
Sample: in vitro
Concentration: 365 nM
Notes: natural RNA segment, single round, ends assumed
Reference: no-protein control
Direction: higher = stronger binding
Constant ends, left off below: GGGAGUUCUACAGUCCGACGAUC … UGGAAUUCUCGGGUGCCAA
Residues (chain): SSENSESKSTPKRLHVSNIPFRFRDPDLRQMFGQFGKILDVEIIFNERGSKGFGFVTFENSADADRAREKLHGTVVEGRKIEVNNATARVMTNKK
Strand | RBNS enrichment (R)
AAACACCAGUGAGGCUCUAUUGAGCCAAGACCAAGUCCUCAAAGCACCUGAACCACUGUGGCCUUCUCAGCCUACAGCAGUGUGGUCUCUUACAUGGCCACAAAGGGACA | 0.231
GAUAAUUUCCAGGUGUCUUCUCAAACGGAGUAAGCGCCUGGAUCCAAAUGGUAGACUACUUGACCCCGUUCUCUAGCGUGAGUUUUCAUAGUGCCAUCUCCUCAUGAUUG | 0.305
AAACAGCUAUAGAUAACAUUAUCCAGUGAAGAGCAAAAUUCAAGCUUUAGAAAAUAUUCAUGCAUGCAAUUUUGACAUAUCUAAAAAUAGGUUUUUGUAUAUUUAUGGUG | 1.13
AAUCUGAAUUAGUCCUGUUUUGGUGGAGUUUGUACAUUUUAAAUCCUAUAACAAAAAUAAUCUAGUUUUCAUUUCCUUACUAGCUAGAUGCGAAUUUGUCUUUUUGAAUG | 0.476
UUAGGUGCCUUUGCGGAUGACCUCAUUUUGACGUUGAAAAAAUGAUUUUUUAAUAUGUGAACACUGCAAAAAUGUGUUUAAAUUAUCUUUUUUAAAACCUAUUCAGGAUU | 0.572
UUAGAAACCUCGUGGGCAGAAGCAUCGAACGACCUCUGAGUCACCCUUAGUCUCCAAGGUCAUCACCCCACCCACUCCCAUCAGUGUGGGCCUUGCUGCCAUUCCAGUCA | 0.286
CCCCCGCCACCUCCCAGGCACCGUAGUUGUGAGAAUCAGAUGUGAUCAUGUGUGCAGAUGUCCUGUGAGGAGGGAGCAUAAAGCACUGUGAAAAUGUAGCAUGCUGUCUA | 9.17
AUCUUACACGAAAGCCACAGAGUUGAAAGCCACAGAGUUGAAAGCCACAGAGUUAAGUGACCUCAGGUAACAUAAUGGUGAUGGUUGGCCAUUUGAGUCUUUGUAACCUA | 0.42
CAAGAUUUUCUUACCUCUCAGUUGUUGAAACACUUUGCUUCUUAAAAUUGAUAUGUUGAAACUUUAAUUCUUUUAUCAAUCCCAGCAUUUUGAGAUCAGUCUUUAUUAAU | 0.483
UUCAACGCUCUGUCCUCUGAGGAGUGUUGUGUCUGAUUUUAUUUUAAAAGUUCACGGUAUGAGAGUUAGUGCUUCUUCCCAAUUUGACCGUUGUAUAUUUUUGGAAACGU | 0.51
UCCGUAGCAGAACACUGUAAAAGUGCCCGCGUCUUUGCAGUAGUUGCAGAUUUCAGUCGUCGUGUUACUUGUGCACAAACAGAAGCUGGGUCUUACCCGCAGCACGAGUG | 0.523
AUAAUGUCCUUUAUCCUGAUUUGAAAUAAUCACGUCAUCUUUCUGCUGAAUAAAAUUGGUUUGCAAGUUGUGGGGGUCCUGUCAUUAAUAUAUCAGGCAGGUAUUAAACU | 0.361

Study 2
Target: Centromere-binding protein 1, full length, N-terminal tag (CBF1, Saccharomyces cerevisiae, UniProt P17106, residues 1-351)
Chain of UniProt P17106 (whole entry, looked up): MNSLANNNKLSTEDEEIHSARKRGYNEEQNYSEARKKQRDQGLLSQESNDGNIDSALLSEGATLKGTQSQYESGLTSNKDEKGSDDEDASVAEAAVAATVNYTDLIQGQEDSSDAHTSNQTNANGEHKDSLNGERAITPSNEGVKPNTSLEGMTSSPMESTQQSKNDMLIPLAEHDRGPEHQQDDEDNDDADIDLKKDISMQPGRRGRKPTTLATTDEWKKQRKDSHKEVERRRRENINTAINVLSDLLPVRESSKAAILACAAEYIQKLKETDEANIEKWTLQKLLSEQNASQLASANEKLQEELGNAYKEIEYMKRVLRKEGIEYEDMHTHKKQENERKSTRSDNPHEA
Technique: protein-binding microarray
Form: double-stranded DNA, one strand shown
Sample: in vitro
Concentration: 0.8 µM
Notes: whole 60-bp probe, no competitor
Direction: higher = stronger binding
Constant ends, left off below: … GTCTTGATTCGCTTGACGCTGCTG
Strand | fluorescence intensity
CTACGAACTTCCCATCAGCAGAGCATGCAATTTTTC | 539 a.u.
TGTACGAAGCTATATCACCAGCTTATAGTAGTTAGG | 513 a.u.
CTACTTAAACTACTCCTCGTGCTGTCCACATTTTTC | 638 a.u.
GAATGGTTTTACTTGCACGTGACCAAGAATGGTTAG | 37500 a.u.
CTATCTTGCCTTCATCACCATTATTGAATTACATTC | 557 a.u.
CTAATGGAAGTTACAGGTGACATAAAATCTACTTTC | 764 a.u.
CTATTTACATCTTGACATCACATACATAATATGTTC | 543 a.u.
CTAAAAAACCGCAATCACGTAACCGTGGCTTCCTTC | 542 a.u.
CTACCCTTTTTCTATCACGAGGTTACTGAGCCATTC | 2400 a.u.
GAAGACGAGATAATGAGCATGATGTATAAACAATAG | 578 a.u.
GAATCTATACAACATCAGTTGCGTATCCGTTAATAG | 483 a.u.
TGTACGAAGCTATATCATGACGTTATAGTAGTTAGG | 536 a.u.
GAAGTCAGGCCACGTCTCCTGTGGCAAAGTGGGTAG | 512 a.u.
CCTAACTACTATATTCATGTCACATAGCTTCGTACA | 609 a.u.
CTATTGAGAAACAGTCACCAGATTTAGGGGAAGTTC | 560 a.u.
GAAGATATAAATACGAACGTGGTTAGTATATAGTAG | 641 a.u.
CTAGACAAGTAAATGAACGTGCTGCAATAAACCTTC | 637 a.u.
CTACACCGCTCAGATCATCAGGGATAAACACTATTC | 540 a.u.
CCTAACTACTATACGCACGTATAATAGCTTCGTACA | 493 a.u.
CCTAACTACTATACGCACCTGCTATAGCTTCGTACA | 534 a.u.
CTAGTAATTGCAGATCAACTGATAAATTAGAAATTC | 572 a.u.
CTATGAGTGTCCGCTGTGATGATGATAGCGGATTTC | 527 a.u.
CTATTGCAACATGTTCACATGTTCATCCCCCTGTTC | 967 a.u.
CTATCATGGGCACGTCACCGCACAACAGCCGCCTTC | 554 a.u.
GAAATAGATCCTGAGAACGTGTTTAACATCTGCTAG | 616 a.u.

Study 3
Target: Histone acetyltransferase KAT6A, both winged helices, GST fusion (KAT6A, Homo sapiens, UniProt Q92794, residues 1-181)
Technique: protein binding microarray
Form: double-stranded DNA, one strand shown
Sample: in vitro
Concentration: not given
Notes: 8-mer, flanks averaged, mean of 2 arrays, mostly near background
Reference: not given
Direction: higher = stronger binding
Target sequence (chain): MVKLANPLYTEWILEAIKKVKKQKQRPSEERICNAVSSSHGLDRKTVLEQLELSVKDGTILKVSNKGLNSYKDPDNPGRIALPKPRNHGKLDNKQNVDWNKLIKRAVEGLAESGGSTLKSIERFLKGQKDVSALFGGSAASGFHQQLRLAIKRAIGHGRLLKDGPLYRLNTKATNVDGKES
Strand | E-score
GCCCCGGA | 0.0839
ACTCGCCC | -0.053
AGATCACT | -0.125
ACCCCAAG | -0.257
GAGACGGA | 0.114
ATGAACGC | 0.101
ACAGAGCG | 0.118
AGTTCGAT | -0.0513
ACAACGTG | -0.00983
TCATGAGA | -0.0473
AGCCGGTC | 0.164
TCCCATAA | -0.118
GCCAGAGA | -0.0761
AATTGACA | -0.0507
CGCAATAA | 0.186
TGTAGTAA | -0.0534
AAACGTCC | 0.0424
ACAGTTAG | -0.0166
GGCATGAC | 0.113
ACGGTGCC | 0.279
ACTGTCAA | -0.0315
CAGGATAC | -0.0901

Study 4
Target: Sal-like protein 4, full length isoform B (SALL4, Homo sapiens, UniProt Q9UJQ4-2, residues 1-616)
Technique: universal PBM
Form: double-stranded DNA, one strand shown
Sample: in vitro
Concentration: not given
Notes: 8-mer, flanks averaged, mean of replicates
Direction: higher = stronger binding
Target sequence (chain): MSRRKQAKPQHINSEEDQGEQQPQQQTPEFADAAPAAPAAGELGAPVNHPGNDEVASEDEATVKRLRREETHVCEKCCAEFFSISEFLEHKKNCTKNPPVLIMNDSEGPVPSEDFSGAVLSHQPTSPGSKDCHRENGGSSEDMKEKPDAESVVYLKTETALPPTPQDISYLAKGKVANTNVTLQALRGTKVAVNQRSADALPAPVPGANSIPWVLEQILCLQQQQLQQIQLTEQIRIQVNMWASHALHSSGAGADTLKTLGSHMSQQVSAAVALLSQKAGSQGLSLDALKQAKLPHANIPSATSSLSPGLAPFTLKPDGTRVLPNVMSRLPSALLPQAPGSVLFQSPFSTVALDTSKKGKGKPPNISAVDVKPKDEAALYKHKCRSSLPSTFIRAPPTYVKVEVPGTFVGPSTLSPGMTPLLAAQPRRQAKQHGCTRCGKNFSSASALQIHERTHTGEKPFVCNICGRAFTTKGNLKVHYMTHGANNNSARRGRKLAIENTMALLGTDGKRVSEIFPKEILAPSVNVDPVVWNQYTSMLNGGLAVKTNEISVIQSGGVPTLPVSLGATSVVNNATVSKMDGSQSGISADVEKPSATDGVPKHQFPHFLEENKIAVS
Strand | E-score
AGCGCTAA | -0.0414
CTCCGAAG | -0.248
GGGCTCTA | -0.18
GCCGTCGA | -0.285
GTGACAAA | 0.0483
ACCCAAAA | -0.0642
CGCATCCA | -0.191
GCTTGCCA | -0.00143
AATTGGTA | 0.193
CATTCGGG | -0.224
GCAAGAAA | 0.0504
GTTATGGA | 0.265
ATTAGCTA | 0.1
GTTTTTGA | 0.231
AGGGTGCC | -0.0701
AATCTCAT | 0.287
TGACGGAA | -0.0147

Study 5
Target: PABPC1L2, full length, GST fusion (mouse, UniProt A0ABA7IW68)
Technique: RNAcompete
Form: RNA
Sample: in vitro
Concentration: 20 nM
Notes: 7-mer, probes averaged, single round
Reference: mean of 7-mers
Direction: higher = stronger binding
Residues (chain): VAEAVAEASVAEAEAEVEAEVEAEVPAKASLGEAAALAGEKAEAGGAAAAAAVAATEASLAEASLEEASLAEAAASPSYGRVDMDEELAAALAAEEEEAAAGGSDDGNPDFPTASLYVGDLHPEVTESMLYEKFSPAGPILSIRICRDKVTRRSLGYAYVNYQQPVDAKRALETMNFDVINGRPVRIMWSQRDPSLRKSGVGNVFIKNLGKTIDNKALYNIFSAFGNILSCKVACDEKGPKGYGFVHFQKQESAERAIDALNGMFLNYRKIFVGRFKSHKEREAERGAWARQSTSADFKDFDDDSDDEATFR
Strand | 7-mer Z-score
UGGAUUU | -0.184
CGUUCCU | -0.336
CACCGAC | -0.0989
GUGUAGC | -0.11
GCGUUGA | -0.117
CUCGCGU | -0.458
UCACAAA | 1.23
UUGACCG | -0.115
CUGUCCG | -0.398
AAUGUGU | -0.141
UAUCACG | -0.197
GUUUAGC | -0.307
CAAUUGC | -0.155
GUUGUAA | -0.0373
CAUAGCC | -0.224
CUUGCUA | -0.273
CCAGAGG | -0.0699
UAGCCUA | -0.224
CAAUCGG | 0.0243
AUAGUGG | 0.115
GUAUUCA | -0.286
AUCGUGU | -0.106
GCGUCAC | -0.124
AAAAUAU | 5.46
CCAGCAU | -0.277

Some of these lines once more (study 3):
Strand | E-score
AATTGACA | -0.0507
CAGGATAC | -0.0901
TGTAGTAA | -0.0534
ACTGTCAA | -0.0315
ACTCGCCC | -0.053
ACGGTGCC | 0.279
ACAGTTAG | -0.0166
ACAGAGCG | 0.118
AGATCACT | -0.125
